Measurements collected from several papers.
Parts stem from different laboratories: compare values within a part only. Substitutions count along the parent as printed.

Set 1
Target: CCNE1, cyclin fold, Cln2 fusion (human)
Technique: yeast growth competition, sequencing
Sample: yeast
Notes: strong parent motif
Relative to: not given
Reading: higher = stronger binding
Endpoint: normalised enrichment score
Starting sequence: GMNC docking peptide (human); KNAKRNLSSEFAN
KNAKRNLSSEIAN [F11I]: 0.154
KLAKRNLSSEFAN [N2L]: 0.662
KNAKRNLSSETAN [F11T]: 0.138
KNAKRNLRSEFAN [S8R]: 0.437
KNPKRNLSSEFAN [A3P]: -0.558
KNAKRNLSSCFAN [E10C]: 0.603
KWAKRNLSSEFAN [N2W]: 0.914
KNAKQNLSSEFAN [R5Q]: 0.151

Set 2
Target: Histone acetyltransferase KAT6A, winged helix 2, GST fusion (KAT6A, Homo sapiens, UniProt Q92794, residues 85-181)
Technique: protein binding microarray
Molecule type: double-stranded DNA, one strand shown
Sample: in vitro
Concentration: not given
Notes: 8-mer, flanks averaged, mean of 2 arrays, mostly near background
Relative to: not given
Reading: higher = stronger binding
Endpoint: E-score
Residues (chain): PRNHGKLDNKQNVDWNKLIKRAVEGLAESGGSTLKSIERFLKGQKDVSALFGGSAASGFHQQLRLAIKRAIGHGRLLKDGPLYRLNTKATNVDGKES
GCACTAAA: 0.138
AGAGACGA: -0.0306
ATTTAGTG: 0.0982
AGCCAAGC: 0.0289
GAATCGTA: -0.169
ACCCGTGC: -0.0208
ATATGCGG: 0.0461
ATCAGGAG: 0.107

Set 3
Target: Phosphate system positive regulatory protein PHO4, full length, GST-tagged (PHO4, Saccharomyces cerevisiae, UniProt P07270, residues 1-312)
Technique: competition protein-binding microarray
Molecule type: double-stranded DNA, one strand shown
Sample: in vitro
Concentration: 2 µM
Notes: whole 60-bp probe, lowest competitor level
Together with: Cbf1 competitor, 0.05 µM
Reading: higher = stronger binding
Endpoint: fluorescence intensity
Construct (chain): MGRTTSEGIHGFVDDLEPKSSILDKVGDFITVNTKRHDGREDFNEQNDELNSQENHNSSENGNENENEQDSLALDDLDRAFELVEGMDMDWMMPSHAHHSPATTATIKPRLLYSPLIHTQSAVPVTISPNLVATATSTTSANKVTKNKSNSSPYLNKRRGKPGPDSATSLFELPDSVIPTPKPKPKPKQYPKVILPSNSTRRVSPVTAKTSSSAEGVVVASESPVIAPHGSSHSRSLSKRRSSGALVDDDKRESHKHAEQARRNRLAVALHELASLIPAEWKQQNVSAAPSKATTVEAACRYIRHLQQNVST
ACCACTCAGGTCCAGAACGTGACTCGTCTTTGCACCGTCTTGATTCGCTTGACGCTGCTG: 11300 a.u.
GTCTTGTCTCATTTACACGTGTTTTTCCCCACTTCAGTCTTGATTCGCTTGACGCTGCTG: 14900 a.u.
TATGGCATGAAAAATCATATGACTTCAAAAATGAACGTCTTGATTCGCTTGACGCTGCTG: 4060 a.u.
ACACAATAAGTAAATATATTTTAAAAAAGTACTCCGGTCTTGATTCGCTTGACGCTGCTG: 3230 a.u.
CTTCAGGGCAACAACCATGTGTTTCCTGGAAGCTTGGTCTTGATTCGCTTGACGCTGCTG: 8260 a.u.
CATACCCAACCTTGGTTCGTGGGTGAAGATATTTGTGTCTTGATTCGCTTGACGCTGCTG: 6730 a.u.
GGTGGTTATGGCTGGGTCGTGACGAACTGTGTGTTCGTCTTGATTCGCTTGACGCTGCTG: 7000 a.u.
GCCATTAGTTTTTTACCTGTGTGGCCATTATACATAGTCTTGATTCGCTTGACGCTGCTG: 4240 a.u.

Mixed results
Starting sequence: PafA, mature enzyme, eGFP fusion (Elizabethkingia meningoseptica, UniProt Q9KJX5); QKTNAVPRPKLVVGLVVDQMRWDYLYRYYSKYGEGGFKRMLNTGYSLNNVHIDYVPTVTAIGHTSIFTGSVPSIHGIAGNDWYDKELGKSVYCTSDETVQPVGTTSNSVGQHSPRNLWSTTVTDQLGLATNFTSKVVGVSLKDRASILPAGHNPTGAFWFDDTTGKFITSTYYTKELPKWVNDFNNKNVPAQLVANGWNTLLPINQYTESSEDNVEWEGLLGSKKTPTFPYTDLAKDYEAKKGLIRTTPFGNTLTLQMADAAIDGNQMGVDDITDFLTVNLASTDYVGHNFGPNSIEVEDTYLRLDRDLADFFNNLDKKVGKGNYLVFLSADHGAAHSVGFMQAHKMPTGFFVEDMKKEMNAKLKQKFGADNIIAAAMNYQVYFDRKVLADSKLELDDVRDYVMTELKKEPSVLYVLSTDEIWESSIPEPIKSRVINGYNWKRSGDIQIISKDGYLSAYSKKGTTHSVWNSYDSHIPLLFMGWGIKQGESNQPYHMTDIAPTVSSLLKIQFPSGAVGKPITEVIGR
L407G
oxyanion analog dissociation constant (tungstate, free oxyanion; microfluidic competitive inhibition; in vitro, cell-free expressed; not given, derived from inhibition constants, unchanged parent 2230 nM; lower = stronger binding): 1860 nM

For quick reference, copied from above (set 3):
GTCTTGTCTCATTTACACGTGTTTTTCCCCACTTCAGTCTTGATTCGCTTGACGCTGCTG: 14900 a.u.
ACACAATAAGTAAATATATTTTAAAAAAGTACTCCGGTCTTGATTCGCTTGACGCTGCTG: 3230 a.u.
